Measurements pooled from the literature.
Numbers after ± are the reported error.

| SMILES | target or system | test | system | conditions | how to read | quantity | result |
| --- | --- | --- | --- | --- | --- | --- | --- |
| C[n+]1cn([C@@H]2O[C@H](COP(=O)(O)OP(=O)([O-])OP(=O)(O)O)[C@@H](O)[C@H]2O)c2nc(N)nc(O)c21 |  | cap-dependent translation, inhibitor | rabbit reticulocyte lysate | preincubated 60 min in lysate |  | IC50 | 7.57 ± 0.27 µM |
| COc1ccc(CC2COC(=O)C2Cc2ccc3c(c2)OCO3)cc1OC (mixture of isomers) | A2780cis | annexin V/7-AAD |  | 3.25 µM, 72 h | baseline: untreated | apoptotic cells | increased |
| Cc1c(C)c(C)[c-](C)c1C.Cc1ccnc(-c2[c-]cccc2)c1.[Cl-].[Ir+3] | A2780 cells | cell growth, SRB |  | 24 h exposure, 72 h recovery |  | IC50 | 3.9 ± 0.2 µM |
| C1=CCC=C1.[Cl][Pd-2]1([Cl])[N+](=P(c2ccccc2)(c2ccccc2)C2C=CC=C2)Cc2cccc[n+]21.[Fe+2] | A2780cisR (cisplatin-resistant) | cell growth, MTT |  | 74 h, 1% DMSO |  | IC50 | 11.9 ± 2.5 µM |
| O=C(/C=C/c1ccc(Cl)cc1)N1CCC2(CC1)CN(Cc1ccc(Cl)c(Cl)c1)C(=O)O2 | EBI2-overexpressing mouse B cells | B cell chemotaxis, antagonist |  | 5 h, together with: 7α,25-OHC 0.1 nM |  | IC50 | 7e-06 µM |
| C=CCc1ccc(O)c(-c2cc(CC=C)ccc2OCCCC[P+](c2ccccc2)(c2ccccc2)c2ccccc2)c1 | UACC-62 | cell growth, IncuCyte confluence |  |  |  | IC50 | 2.5 µM |
| COC(=O)[C@@]1(C)C=C(C(=O)NCc2cccc(C(=O)Nc3ccc(Nc4nccc(-c5cccnc5)n4)c(C)c3)c2)C(=O)CC1 | SH-SY5Y MKK7-ACT | c-Jun phosphorylation, inhibitor, western blot, measured: phospho-c-Jun Ser73 |  | 6 h, together with: doxycycline |  | IC50 | 4.32 ± 1.38 µM |
| CC(=O)[O-].O.O.O.O.[Mn+2].[O-]c1ccc(Br)cc1C=NCCN1CCOCC1 | NHDF normal fibroblasts | cell viability, MTT |  | 72 h |  | IC50 | 61.1 µg/mL |
| N=C(N)NCCC[C@@H]1NC(=O)[C@H](CCCCNC(=O)CNC(=O)CNC(=O)CNC(=O)CC[C@H](NC(=O)CNC(=O)CNC(=O)CNC(=O)CN2CCN(CC(=O)O)CCN(CC(=O)O)CCN(CC(=O)O)CC2)C(=O)NCC(=O)NCC(=O)NCC(=O)NCCCC[C@@H]2NC(=O)[C@@H](Cc3ccccc3)NC(=O)[C@H](CC(=O)O)NC(=O)CNC(=O)[C@H](CCCNC(=N)N)NC2=O)NC(=O)[C@@H](Cc2ccccc2)NC(=O)[C@H](CC(=O)O)NC(=O)CNC1=O [indium-111 labelled] |  |  | female athymic nu/nu mice, spleen | intravenous, 111 kBq, 4 h |  | tissue uptake | 1.18 ± 0.2 %ID/g |
| COc1cc(-c2cc(=O)c3c(O)cc(OC4OC(COC5OC(C)C(O)C(O)C5O)C(O)C(O)C4O)cc3o2)ccc1O (centres unmarked) | AML12 | cell growth or viability, resazurin |  | 72 h |  | IC50 | > 100 µM |
| CCCCCCCCCCCCCCCCCC(=O)N[C@@H](CCCNC(=N)N)C(=O)N[C@@H](CCCNC(=N)N)C(=O)N[C@@H](CCCNC(=N)N)C(=O)N[C@@H](CCCNC(=N)N)C(=O)N[C@@H](CCCNC(=N)N)C(N)=O | HCEC | cytotoxicity |  |  |  | IC50 | > 150 µg/mL |
| COc1cc(CNC(=O)C[C@H](C)CCC=C(C)C)ccc1OCc1cn(-c2ccccc2[N+](=O)[O-])nn1 | A549/ATCC | SRB |  | 10 µM, 48 h |  | growth | 65.7% |
| C=C1C(=O)O[C@H]2CC3=C[C@@H](C/C(C)=C/[C@@H](OC(=O)/C=C/c4ccccc4)[C@H]12)OC3=O | A2058 | cell growth or viability, MTT |  | 24 h |  | IC50 | 3.9 µM |
| CCCC(CCC)C(=O)[O][Pt]([NH2])([NH2])([Cl])([Cl])[O]C(=O)C(Cl)Cl | C13 cisplatin-resistant | cytotoxicity, MTT |  | 72 h |  | IC50 | 1.39 ± 0.37 µM |
| C=C1C(=O)[C@@]23CC[C@@H]4[C@](C)(COC(C)=O)CCC[C@@]4(COC(C)=O)[C@@H]2[C@@H](O)C[C@@H]1C3 | 786-0 | cell growth or viability, MTT |  |  |  | IC50 | > 20 µM |
| Cc1ccc2oc(-c3c4c(N)n[nH]c(=O)c4nn3-c3ccc(NC(=O)/C=C/CN(C)C)cc3)c(C)c2c1 | Ba/F3 TEL-FGFR1 | cell proliferation |  |  |  | IC50 | < 0.0003 µM |
| COc1cccc(Cc2cc(C)nn(S(=O)(=O)c3cccc4c(N(C)C)cccc34)c2=O)c1 | human neutrophils | calcium flux, antagonist |  | 10 min preincubation, together with: fMLF 5 nM |  | IC50 | 19.3 ± 4.98 µM |
| CN(C)C(=S)[S][Pd][c]1ccccc1C(=O)N=P12CN3CN(CN(C3)C1)C2 | human PBMC | cytotoxicity, MTT |  | 24 h, 1% DMSO |  | IC50 | 186 ± 9 µM |
| [Cl][Pd-]1([Cl])[S]C(Nc2ccccc2)=N[N+]1=Cc1ccc(-c2ccccc2)s1 | CEM human lymphocytes | cell proliferation |  |  |  | IC50 | 168 µM |
| O=C1c2ccc3c4ccc5c6c(ccc(c7ccc(c2c37)C(=O)N1CCN1CCCCC1)c64)C(=O)N(CCN1CCCCC1)C5=O | human PBMC | cell growth or viability, SRB |  | 72 h |  | IC50 | 318 µM |
| CC1=CC(C)=[N+]2C1=C(CO)c1c(C)cc(C)n1[B-]2(F)F | RPE-1 | cell growth or viability, resazurin |  | dark |  | IC50 | > 100 µM |
| C=CC(OC(C)=O)c1ccccc1 (centres unmarked) | RT-112 | MTT |  | 24 h |  | IC50 | > 50 µM |
| C=CC(=O)N1CC=C(c2c(-c3ccc(Oc4cccc(C)n4)cc3)c3c(N)ncnc3n2C)C1 | SNU-16 | cell growth or viability, ATP luminescence |  | 96 h |  | IC50 | 0.005 µM |
| O=[N+]([O-])c1ccc(C=[N+]2N=C(Nc3ccccc3)[S][Pt-]2([Cl])[Cl])s1 | CEM human lymphocytes | cell proliferation |  |  |  | IC50 | 8.1 µM |
| Cc1nn(-c2ccc(S(=O)(=O)N[C@H](CO)CC(C)C)cc2)c2nn3nnnc3nc12 | HT-29 | PI/Hoechst staining |  | 1 µM, 24 h |  | necrotic cells | 21 ± 1.4% |
| COc1cc(CNC(=O)C[C@H](C)CCC=C(C)C)ccc1OCc1cn(-c2ccc(Cl)c(Cl)c2)nn1 | 786-0 | SRB |  | 10 µM, 48 h |  | growth | 80.4% |
| C[n+]1cn(C2OC(COP(=O)(O)OP(=O)([O-])OP(=O)(O)OCC3OC(n4cnc5c(=O)[nH]c(N)nc54)C(O)C3O)C(O)C2O)c2nc(NCc3ccccc3)[nH]c(=O)c21 (centres unmarked) |  | cap-dependent translation, inhibitor | rabbit reticulocyte lysate | together with: ARCA-capped luciferase mRNA |  | IC50 | 0.61 ± 0.04 µM |
| O=Cc1c(O)ccc2ccccc12 | HUVEC | RNA sequencing, measured: DUSP8 |  | 75 µM, 24 h | baseline: DMSO | log2 fold change | 3.02 |
| CNC(=O)C1CCN(c2cc(C)c(F)cc2NC(=O)c2ccc(-c3cc(O)ccc3C)c(C)c2)CC1 | 12Z | measured: PTGS2 mRNA |  | 3 h, 30 min pretreatment, together with: IL-1β 0.05 ng/mL |  | IC50 | 7.2 µM |

Some of these lines once more:
| SMILES | target or system | test | system | conditions | how to read | quantity | result |
| --- | --- | --- | --- | --- | --- | --- | --- |
| COc1cc(-c2cc(=O)c3c(O)cc(OC4OC(COC5OC(C)C(O)C(O)C5O)C(O)C(O)C4O)cc3o2)ccc1O (centres unmarked) | AML12 | cell growth or viability, resazurin |  | 72 h |  | IC50 | > 100 µM |
| CCCCCCCCCCCCCCCCCC(=O)N[C@@H](CCCNC(=N)N)C(=O)N[C@@H](CCCNC(=N)N)C(=O)N[C@@H](CCCNC(=N)N)C(=O)N[C@@H](CCCNC(=N)N)C(=O)N[C@@H](CCCNC(=N)N)C(N)=O | HCEC | cytotoxicity |  |  |  | IC50 | > 150 µg/mL |
| COc1cc(CNC(=O)C[C@H](C)CCC=C(C)C)ccc1OCc1cn(-c2ccccc2[N+](=O)[O-])nn1 | A549/ATCC | SRB |  | 10 µM, 48 h |  | growth | 65.7% |
| C=C1C(=O)O[C@H]2CC3=C[C@@H](C/C(C)=C/[C@@H](OC(=O)/C=C/c4ccccc4)[C@H]12)OC3=O | A2058 | cell growth or viability, MTT |  | 24 h |  | IC50 | 3.9 µM |
